{"data": "Published values from different studies", "note": "Every numbered part comes from another study and shows a few of its results, in no order."}
{"data": "Series 1", "target": "RING finger protein unkempt homolog, zinc fingers 1-6, GST-SBP tag (UNK, Homo sapiens, UniProt Q9C0B0, residues 30-357)", "method": "RNA Bind-n-Seq", "molecule type": "RNA", "matrix": "in vitro", "concentration": "not given", "notes": "RNA with constant flanks, human and mouse sites, ends assumed", "baseline": "input RNA pool", "reading": "higher = stronger binding", "shared flanks, not repeated": "GGGAGUUCUACAGUCCGACGAUC … CAACAGAGGAUUGAGCAUCA", "UniProt Q9C0B0, sequence (30-357, looked up)": "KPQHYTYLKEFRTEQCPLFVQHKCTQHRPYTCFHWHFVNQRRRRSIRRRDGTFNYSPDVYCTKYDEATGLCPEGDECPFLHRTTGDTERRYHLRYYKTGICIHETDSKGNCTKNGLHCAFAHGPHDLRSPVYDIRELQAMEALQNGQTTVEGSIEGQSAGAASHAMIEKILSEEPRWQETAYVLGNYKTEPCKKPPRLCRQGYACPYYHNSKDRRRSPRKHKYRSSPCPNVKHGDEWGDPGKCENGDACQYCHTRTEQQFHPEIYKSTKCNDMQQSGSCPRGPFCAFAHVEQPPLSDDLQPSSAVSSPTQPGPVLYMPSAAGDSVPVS"}
{"Sequence": "GGCAAAAACCAUUCCAGAAAAGAUGGACUCAGUGAUGAAAGAGGAAGAGAUGACUGUGGAACCUUUGAGGACACAGGGCCCCUUCUCCAGUUUGACUAUAAGGCUGUUGCUGAUCGACUC", "bound/input enrichment [ratio]": 0.0986}
{"Sequence": "GAAGCUCAGCACUUAACAACUGACACCCCAAAAGACGUAGAAAAGGUUUACAAAAUAAUCUAGUUUACGAAGAAAUCUUGUGCUAGAAUACUUUUUAAAGUAUUUUUGAAUACCAUUAAA", "bound/input enrichment [ratio]": 0.276}
{"Sequence": "AUCACCAAGCUAGACUUGAUGGAUGAAGGCACAGACGCCAGGGAUGUCCUGGAAAACAAGCUACUGCCCUUGAGAAGAGGCUAUAUCGGCGUGGUUAACCGAAGCCAGAAAGACAUCGAG", "bound/input enrichment [ratio]": 0.116}
{"Sequence": "CUUCGGGCUGCUAAUAUUCUUGUAGGAGAAAAUCUUGUGUGCAAAAUAGCAGACUUUGGUUUAGCAAGGUUAAUUGAAGACAAUGAAUACACAGCAAGACAAGGUGCAAAAUUUCCAAUC", "bound/input enrichment [ratio]": 20.7}
{"Sequence": "CCUGGACUGACUGACCAGAAGACUGUCCCAACACCAACAGUACCUUCAGGUUCCUUCUCACAUAGAGAGAAGCCCAGUAUUUUCUAUCAACAGGAGUGGCCAGAUAGUUAUGCAACUGAA", "bound/input enrichment [ratio]": 0.504}
{"Sequence": "AAUGCUGACCUGUUCCGUGGCACACUGGACCCUGUAGAGAAGGCCCUUCGAGAUGCCAAGCUGGACAAGUCACAGAUCCAUGAUAUUGUCUUGGUGGGUGGUUCUACCAGAAUCCCCAAG", "bound/input enrichment [ratio]": 0.0693}
{"Sequence": "ACAGCUAUCUGGAACUUACUCGUUACAACAGGGCGAGAAGUUAAAUAUGACUUGUUGGUUAGCAAUGCAAUUCAGUUUCUGGCUUCAGUUUGUGAAAGGCCACAUUAUAAGAAUCUGUUU", "bound/input enrichment [ratio]": 0.5}
{"Sequence": "AGGAUAUCUGGUGCAUUAUUCACUAAUGACAAAUUCCAGGUCAGCACAAAUAAAUUGACGUUUAUGGAUCUUGAGCUAAAAUUGAAAGAUAAGAACACCCUUUUUACAAGGAUUUUAAAU", "bound/input enrichment [ratio]": 0.229}
{"Sequence": "GGAAUCAACUUCAUGGUCUACCAACCAACCCCGUGGGAGGCAGCCUCAGACUCGAUGAAACGACUACAAAGUGCCAUGACAGAAGGUGGUGUGGUUCUACGGGAACCUCAGAGAAUCUAU", "bound/input enrichment [ratio]": 0.0685}
{"Sequence": "AAGAGGAUACAUGAAGUGGCUAUGGGAGAAACAAAAGCCCAAACCAGACCUAGAGGAUCAAGUCAUAAUGGGAGCAUUUUUAGACAAGCCAAAGAUGGAGAAGCAUAAUGCCCAGGGGCA", "bound/input enrichment [ratio]": 0.576}
{"Sequence": "UUUCAUAAUUUUUACUGACGCUCAGUAACCAUGCAAAAUUGUGUAUAGCAUUAAUGUAUCUACAUACCUACACCUAUCUAUAUAUAAGCUCAUGGUAGAAAACCAUAGCUAAGUAGCAUC", "bound/input enrichment [ratio]": 0.54}
{"data": "Series 2", "target": "Centromere-binding protein 1, full length, N-terminal tag (CBF1, Saccharomyces cerevisiae, UniProt P17106, residues 1-351)", "method": "protein-binding microarray", "molecule type": "double-stranded DNA, one strand shown", "matrix": "in vitro", "concentration": "0.8 µM", "notes": "whole 60-bp probe, no competitor", "reading": "higher = stronger binding", "shared flanks, not repeated": "… GTCTTGATTCGCTTGACGCTGCTG", "UniProt P17106, sequence (whole entry, looked up)": "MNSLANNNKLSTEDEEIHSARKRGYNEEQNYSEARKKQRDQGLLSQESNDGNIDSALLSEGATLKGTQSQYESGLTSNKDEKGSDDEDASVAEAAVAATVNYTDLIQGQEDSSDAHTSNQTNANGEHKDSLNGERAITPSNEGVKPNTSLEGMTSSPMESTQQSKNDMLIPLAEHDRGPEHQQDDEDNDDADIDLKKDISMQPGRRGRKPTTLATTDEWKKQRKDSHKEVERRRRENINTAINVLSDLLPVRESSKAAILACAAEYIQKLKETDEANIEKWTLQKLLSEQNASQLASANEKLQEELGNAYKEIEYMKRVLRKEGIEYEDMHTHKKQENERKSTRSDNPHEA"}
{"Sequence": "GAAAAACGTCAACACCACCTCTACATTTCTTTTTAG", "fluorescence intensity [a.u.]": 498}
{"Sequence": "TGTACGAAGCTATTACACGTTACTATAGTAGTTAGG", "fluorescence intensity [a.u.]": 589}
{"Sequence": "CTACCGGTAGAAGGTGGTGCTTTTATCTATGTATTC", "fluorescence intensity [a.u.]": 507}
{"Sequence": "GAAAAATTGTATGCTGACGTCAACTTTTTATTATAG", "fluorescence intensity [a.u.]": 504}
{"Sequence": "CTACCACGACTACAACATGTGCAAGTACTATCCTTC", "fluorescence intensity [a.u.]": 635}
{"Sequence": "CCTAACTACTATAGACACGAAATATAGCTTCGTACA", "fluorescence intensity [a.u.]": 523}
{"Sequence": "GAAAGCGGCTTACATCAGACATCTTTTCTCGAATAG", "fluorescence intensity [a.u.]": 506}
{"Sequence": "CTACTTCTGTGCCATCACGGTACTCTCTTCTATTTC", "fluorescence intensity [a.u.]": 565}
{"Sequence": "GAAAATTTCGAAAAGGTGATGACGCCCTATGCATAG", "fluorescence intensity [a.u.]": 486}
{"Sequence": "CTAGTCATAATTTCACGTGTTATAATAGCCATGTTC", "fluorescence intensity [a.u.]": 3080}
{"Sequence": "GAAGTCGAAAAAATAAACGTGCGTCGTGGAACTTAG", "fluorescence intensity [a.u.]": 568}
{"Sequence": "GAATTTTCTCAACGTGACTGGAGTAACGTAATATAG", "fluorescence intensity [a.u.]": 3360}
{"Sequence": "CCTAACTACTATAATCAACTCACATAGCTTCGTACA", "fluorescence intensity [a.u.]": 509}
{"Sequence": "CCTAACTACTATAAAAAGCACGTATAGCTTCGTACA", "fluorescence intensity [a.u.]": 524}
{"Sequence": "GAACATAGCGTATACACGTGCACTCACAAGCATTAG", "fluorescence intensity [a.u.]": 5470}
{"Sequence": "CCTAACTACTATAGCACCGTGGAATAGCTTCGTACA", "fluorescence intensity [a.u.]": 512}
{"Sequence": "GAAATTAAGCCGCACGTGCTCGCCGCAGATGTTTAG", "fluorescence intensity [a.u.]": 12400}
{"Sequence": "GAAGATATGATGGTGATGGTGACGGTGATGGTATAG", "fluorescence intensity [a.u.]": 509}
{"Sequence": "GAATGGCGAAAAATGCACGCGCGTAAATAATGATAG", "fluorescence intensity [a.u.]": 651}
{"data": "Series 3", "target": "Sal-like protein 4, full length isoform A (SALL4, Homo sapiens, UniProt Q9UJQ4, residues 1-1053)", "method": "universal PBM", "molecule type": "double-stranded DNA, one strand shown", "matrix": "in vitro", "concentration": "600 nM", "notes": "8-mer, flanks averaged, mean of replicates", "reading": "higher = stronger binding", "UniProt Q9UJQ4, sequence (whole entry, looked up)": "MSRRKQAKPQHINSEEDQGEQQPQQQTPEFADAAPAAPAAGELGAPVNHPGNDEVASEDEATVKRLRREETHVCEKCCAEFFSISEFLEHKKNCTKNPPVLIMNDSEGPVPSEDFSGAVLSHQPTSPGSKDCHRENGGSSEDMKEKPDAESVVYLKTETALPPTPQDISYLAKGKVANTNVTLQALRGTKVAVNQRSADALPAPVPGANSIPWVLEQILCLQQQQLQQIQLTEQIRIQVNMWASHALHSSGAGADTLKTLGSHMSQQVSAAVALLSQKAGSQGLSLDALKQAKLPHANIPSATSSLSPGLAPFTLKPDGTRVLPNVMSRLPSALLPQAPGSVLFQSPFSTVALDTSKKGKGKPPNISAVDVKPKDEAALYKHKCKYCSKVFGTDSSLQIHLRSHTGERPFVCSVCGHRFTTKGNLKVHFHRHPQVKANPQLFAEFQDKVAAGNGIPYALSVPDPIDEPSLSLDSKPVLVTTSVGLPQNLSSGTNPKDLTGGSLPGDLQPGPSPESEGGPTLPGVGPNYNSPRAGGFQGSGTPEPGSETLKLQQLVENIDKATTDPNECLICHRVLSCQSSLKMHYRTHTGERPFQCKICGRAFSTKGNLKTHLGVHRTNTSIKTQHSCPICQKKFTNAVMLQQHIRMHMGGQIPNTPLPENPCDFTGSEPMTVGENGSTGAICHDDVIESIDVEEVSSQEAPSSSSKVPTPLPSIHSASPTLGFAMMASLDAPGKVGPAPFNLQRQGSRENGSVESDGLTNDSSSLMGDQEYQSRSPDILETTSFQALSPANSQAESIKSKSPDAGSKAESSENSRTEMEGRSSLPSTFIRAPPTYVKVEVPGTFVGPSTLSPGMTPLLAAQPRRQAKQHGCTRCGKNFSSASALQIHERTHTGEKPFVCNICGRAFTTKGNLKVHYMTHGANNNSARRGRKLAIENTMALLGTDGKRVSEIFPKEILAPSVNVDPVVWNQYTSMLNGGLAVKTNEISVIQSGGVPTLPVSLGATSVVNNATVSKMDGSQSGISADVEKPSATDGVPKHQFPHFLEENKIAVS"}
{"Sequence": "TACGATCA", "E-score": 0.15}
{"Sequence": "GATCCCTA", "E-score": -0.117}
{"Sequence": "ATCGTCCA", "E-score": -0.0622}
{"Sequence": "ACTATGCT", "E-score": 0.249}
{"Sequence": "ACCTGCAT", "E-score": -0.0302}
{"Sequence": "GCAATGCC", "E-score": -0.105}
{"Sequence": "AGCGGATC", "E-score": -0.219}
{"Sequence": "CATCAGAC", "E-score": 0.0379}
{"Sequence": "GGGAAACA", "E-score": -0.0249}
{"Sequence": "ACGACGCC", "E-score": -0.288}
{"Sequence": "CACAGTCG", "E-score": -0.105}
{"Sequence": "AGAGATGC", "E-score": -0.136}
{"Sequence": "AGGGTAAA", "E-score": 0.137}
{"Sequence": "TCTGACCA", "E-score": 0.017}
{"Sequence": "CAGCGATA", "E-score": 0.0468}
{"Sequence": "GAGTCGCA", "E-score": -0.117}
{"Sequence": "CGGATGTA", "E-score": 0.0121}
{"Sequence": "ACAGATCG", "E-score": -0.11}
{"data": "Series 4", "organism": "Saccharomyces cerevisiae", "effect on": "binding", "method": "competitive growth deep sequencing", "molecule type": "peptide", "strain": "cyclin E1-Cln2 fusion strain", "notes": "peptide tiling library", "reading": "direction not given"}
{"Molecule": "GPVKLEFDVSDGAT", "enrichment score": 0.336}
{"Molecule": "AKRSLGFLPQPVPL", "enrichment score": -1.05}
{"Molecule": "NEGVSNAVRRSLYIRD", "enrichment score": -0.639}
{"Molecule": "KVRRNLFNQELLSP", "enrichment score": 1.2}
{"Molecule": "ESSQLTVQAEFDMSAI", "enrichment score": 0.533}
{"Molecule": "VLPGGVPSPGASLTSM", "enrichment score": 0.223}
{"Molecule": "RQVRRDLFAF", "enrichment score": -1.29}
{"Molecule": "SNFFDVIKQLFSDEKN", "enrichment score": 0.94}
{"Molecule": "QYQVVDDIVSKLVFDF", "enrichment score": 0.61}
{"Molecule": "KRCATPVIIDEILPSK", "enrichment score": 1.17}
{"Molecule": "GTPKRCLDLSNLSSGE", "enrichment score": -0.219}
{"Molecule": "DKYDEGLYRFNSLNDL", "enrichment score": 0.668}
{"Molecule": "NESHLDKEHDAVEVAD", "enrichment score": 1.14}
{"Molecule": "NSMKELNFSHLPSNSV", "enrichment score": 0.349}
{"note": "A few entries again (series 3):"}
{"Sequence": "CAGCGATA", "E-score": 0.0468}
{"Sequence": "AGAGATGC", "E-score": -0.136}
{"Sequence": "ACTATGCT", "E-score": 0.249}
{"Sequence": "AGGGTAAA", "E-score": 0.137}
{"Sequence": "CGGATGTA", "E-score": 0.0121}
{"Sequence": "ATCGTCCA", "E-score": -0.0622}
{"Sequence": "CATCAGAC", "E-score": 0.0379}
{"Sequence": "GCAATGCC", "E-score": -0.105}
{"Sequence": "ACCTGCAT", "E-score": -0.0302}
{"Sequence": "TACGATCA", "E-score": 0.15}
